# Published values pooled from the literature.
# Cell line: NCI-H23
SMILES,test,conditions,how to read,measurement,result
Cc1ccc(C(=O)/C=C/c2ccccc2)s1,SRB,10 µM,,growth inhibition,< 0%
Cc1ccc([N+](=O)[O-])cc1S(=O)(=O)N(C)/N=C/c1cnc2ccc(Br)cn12,cell growth or viability,,,IC50,> 10000 nM
CCCCCCCCCCCCCCCCCCOc1ccccc1CCOP(=O)([O-])OCC[N+](C)(C)C,"cell growth or viability, SRB",10 µM,,inhibition,3.81%
CN(C)CCN1CCN(c2ccc3nc(-c4ccc5nc(-c6ccc(C(F)(F)F)cc6)[nH]c5c4)[nH]c3c2)CC1,SRB,"10 µM, 48 h",,growth percent,55.6%
CC(C)c1ccc(N(C)c2ccc3c(c2)OCC[C@H]3CNc2cnccc2C(=O)O)cc1,"cell growth or viability, ATP luminescence",7 days,,IC50,42.7 nM
CCCC(CCC)C(=O)OCc1cn(-c2cc3ccccc3oc2=O)nn1,NCI60 single-dose screen,10 µM,,growth percentage,94.5%
C1=[N+]2CCCC[N+]3=Cc4ccc5[n]4[Au-]23[n]2c1ccc2-c1nc2ccccc2nc1-5.F[P-](F)(F)(F)(F)F,NCI60 five-dose screen,,,TGI,4.12 -log M
O=C(Nc1nnc2c1c(-c1ccc(Cl)cc1)nc1sc(=Cc3ccco3)c(=O)n12)c1ccccc1 (mixture of isomers),SRB,"10 µM, NCI60 single-dose screen",relative to: untreated,cell growth,58.6%
CNS(=O)(=O)Nc1nccc(Cc2c(C)c3ccc(Oc4ncccc4F)cc3oc2=O)c1F,cell viability,7 days,,IC50,183 nM
O=C(CCl)c1ccccc1Nc1cccc(C(F)(F)F)c1,"cell growth or viability, SRB",48 h,,GI50,9860 nM
